# Results collected from several papers.
# A part holds a random share of what one study measured. “And” joins repeats or separate records; there may be more than shown. Substitutions count along the parent as printed.

# Block 1
# Target: TATA-box-binding protein 1 (TBP1, Arabidopsis thaliana, UniProt P28147, residues 1-200, full length assumed)
# Technique: protein-binding microarray
# Molecule type: double-stranded DNA, one strand shown
# Sample: in vitro
# Tested at: not given
# Setting: k-mer, scored over probes, only values ≥0.25
# Reading: higher = stronger binding
# Target sequence (chain): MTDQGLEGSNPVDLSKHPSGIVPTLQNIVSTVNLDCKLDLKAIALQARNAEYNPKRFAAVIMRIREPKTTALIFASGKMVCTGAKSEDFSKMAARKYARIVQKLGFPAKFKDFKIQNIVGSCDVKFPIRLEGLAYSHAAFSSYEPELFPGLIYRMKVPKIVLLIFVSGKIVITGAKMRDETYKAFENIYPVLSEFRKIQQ
Sequence,E-score
CTATAAA,0.44
GTGATAA,0.254
AACTTAT,0.314
AATATCT,0.323
GTATTAA,0.341
CTTTATC,0.294
ATAAACG,0.268
GGTTTAA,0.288
AATAATA,0.371
TAAAACA,0.317
TGCTTAA,0.291
GAGATAA,0.29
ATACACA,0.263
AGTATTA,0.335
GTAATAA,0.31
TATATAA,0.494

# Block 2
# Target: Sal-like protein 4, full length isoform B (SALL4, Homo sapiens, UniProt Q9UJQ4-2, residues 1-616)
# Technique: universal PBM
# Molecule type: double-stranded DNA, one strand shown
# Sample: in vitro
# Tested at: not given
# Setting: 8-mer, flanks averaged, mean of replicates
# Reading: higher = stronger binding
# Construct (chain): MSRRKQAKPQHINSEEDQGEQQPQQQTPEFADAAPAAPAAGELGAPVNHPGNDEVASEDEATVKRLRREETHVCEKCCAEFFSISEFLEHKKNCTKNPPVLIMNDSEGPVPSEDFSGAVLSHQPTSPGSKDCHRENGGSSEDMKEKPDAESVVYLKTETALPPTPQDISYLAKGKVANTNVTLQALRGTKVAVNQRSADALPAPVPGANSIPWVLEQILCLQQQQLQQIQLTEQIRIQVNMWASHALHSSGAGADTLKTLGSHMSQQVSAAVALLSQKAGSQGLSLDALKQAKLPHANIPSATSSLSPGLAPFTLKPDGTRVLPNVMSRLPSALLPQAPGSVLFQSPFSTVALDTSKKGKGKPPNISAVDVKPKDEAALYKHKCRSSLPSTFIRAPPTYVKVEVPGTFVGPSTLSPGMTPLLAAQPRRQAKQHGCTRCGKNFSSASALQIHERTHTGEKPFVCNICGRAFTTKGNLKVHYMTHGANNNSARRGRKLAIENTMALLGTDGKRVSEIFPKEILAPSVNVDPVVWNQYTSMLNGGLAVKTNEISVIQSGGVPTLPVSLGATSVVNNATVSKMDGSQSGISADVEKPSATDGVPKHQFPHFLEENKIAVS
Sequence,E-score
ATACTGGC,-0.0392
AACCATCT,-0.074
CAGTCGAA,-0.16
CTATCACA,0.145
CTACGAAG,-0.151
AGCCTCGG,-0.338
CAAGTTAC,0.0625
ACCATCAT,0.21
ACTCATCC,-0.011
CGTATTTC,0.238
AGAAGAAG,-0.0891
AGAGCTGA,-0.131
AGGCTACA,-0.0869
GGCTTCCC,-0.234
AGGCCATG,-0.202
CAAGAACA,0.107
CGTGGGTC,-0.18
CAGACGGG,-0.202
CCACTGAA,0.0227
ATTTTGGC,0.187
TGGGTAAA,-0.0678
GAAGCAAC,-0.00357
AAAGGCAC,-0.0107
AACCCAAT,0.11
CGCTGACC,-0.133

# Block 3
# Target: CCND2, cyclin fold, Cln2 fusion (human)
# Technique: yeast growth competition, sequencing
# Sample: yeast
# Setting: weak parent motif
# Baseline: not given
# Reading: higher = stronger binding
# Starting sequence: BRCA2 docking peptide (human); PSIKRNLLNEFDR
Substitution,normalised enrichment score
PSIKRNWLNEFDR [L7W],-0.132
PSIKRNDLNEFDR [L7D],-0.0668
PSIKRNLYNEFDR [L8Y],0.303
NSIKRNLLNEFDR [P1N],0.629
PSIKRNNLNEFDR [L7N],-0.782
PSIKRNLLEEFDR [N9E],-0.0331
PSIKRVLLNEFDR [N6V],0.0627
PSIKRNLLNEHDR [F11H],0.0664
PSIKRNGLNEFDR [L7G],0.0986
PSIKRILLNEFDR [N6I],-0.0419
PSIKRNLLNEFFR [D12F],0.411
PSIKRNLLNEADR [F11A],0.637
PSIKRPLLNEFDR [N6P],0.608
PSIKENLLNEFDR [R5E],0.427
PSIKRNLLNMFDR [E10M],-0.179
PSIKRNLLWEFDR [N9W],0.37
PSIKRNMLNEFDR [L7M],0.337
PSIKRNLLNEIDR [F11I],0.564
PSIKRNLLNEFTR [D12T],0.248
PSIKRNLSNEFDR [L8S],0.462
PSIKRNLLKEFDR [N9K],0.321
PMIKRNLLNEFDR [S2M],0.388
PSIKRNLLNEFDP [R13P],0.0478
CSIKRNLLNEFDR [P1C],0.367
PSIKQNLLNEFDR [R5Q],-0.00779

# Further values, each from its own experiment
Substance,target,test,system,setting,scale,quantity,value
"PhoQ, residues 284 288 289 292 302 303 SACGEM","PhoP, residues 12 14 15 18 19 LWHCS (Escherichia coli, UniProt P23836)","Sort-seq, measured: YFP reporter",E. coli,"PhoQ-PhoP variant library, with: 10 µM Mg2+","baseline: high Mg2+ state, higher = stronger signaling",fold induction,9.1 and 19.3

# For quick reference, copied from above (block 1):
Sequence,E-score
CTATAAA,0.44
ATACACA,0.263
AACTTAT,0.314
GTATTAA,0.341
GTGATAA,0.254
GGTTTAA,0.288
